Measurements gathered from unrelated publications.
“And” joins repeats or separate records; there may be more than shown. ± marks the error that the study gave.

For `O=C(NCc1ccc(F)cc1F)c1cn2ccn(CCCCCO)c(=O)c2c(O)c1=O`, the EC50 was 626 ± 92.5 nM (human immunodeficiency virus 1; single-round vector infection; integrase G140S/Q148H).
Under “time to peak”, `CC[C@H](C)[C@H](NC(=O)[C@H](Cc1ccccc1)NC(=O)[C@@H](NC(=O)[C@@H](NC(=O)[C@H](CC(C)C)NC(=O)[C@H](CCCCN)NC(=O)[C@@H](N)CCCCN)[C@@H](C)CC)[C@@H](C)O)C(=O)N[C@@H](CC(C)C)C(=O)N[C@@H](CCCNC(=N)N)C(=O)N[C@@H](CCCNC(=N)N)C(=O)N[C@H](C(=O)N[C@@H](CCCNC(=N)N)C(=O)N[C@@H](CCC(=O)O)C(=O)N[C@@H](CCCCN)C(=O)N[C@@H](CCCCN)C(=O)N[C@@H](CCCCN)C(=O)N[C@@H](CCC(=O)O)C(=O)N[C@@H](CS)C(=O)N[C@@H](CC(C)C)C(=O)N[C@H](C(=O)O)C(C)C)[C@@H](C)O` is recorded as 6.1 ± 0.5 ms (TTX-sensitive sodium channel; resurgent sodium current, open-channel blocker, whole-cell patch clamp; mouse hippocampal CA3 neurons; 200 µM intracellular, 22 °C).
The MIC of `CC[C@H](C)[C@H](NC(=O)[C@H](CCCCN)NC(=O)[C@H](CCCCN)NC(=O)[C@H](CC(C)C)NC(=O)[C@H](Cc1c[nH]c2ccccc12)NC(=O)CN)C(=O)NCC(=O)N[C@@H](CCCCN)C(=O)N[C@@H](CCCCN)C(=O)N[C@H](C(=O)N[C@@H](CCC(=O)O)C(=O)N[C@@H](CCCNC(=N)N)C(=O)N[C@H](C(=O)NCC(=O)N[C@@H](CCC(N)=O)C(=O)N[C@@H](Cc1c[nH]cn1)C(=O)N[C@H](C(=O)N[C@@H](CCCNC(=N)N)C(=O)N[C@@H](CC(=O)O)C(=O)N[C@@H](C)C(=O)N[C@H](C(=O)N[C@H](C(=O)N[C@@H](CCC(N)=O)C(=O)N[C@H](C(=O)N[C@H](C(=O)NCC(=O)N[C@H](C(=O)N[C@@H](C)C(=O)N[C@@H](CCC(N)=O)C(=O)N[C@@H](CCC(N)=O)C(=O)N[C@@H](C)C(=O)N[C@@H](C)C(=O)N[C@@H](CC(N)=O)C(=O)N[C@H](C(=O)N[C@@H](C)C(=O)N[C@@H](C)C(=O)N[C@H](C(=O)N[C@@H](CC(C)C)C(=O)N[C@@H](CCCCN)C(N)=O)[C@@H](C)O)C(C)C)C(C)C)[C@@H](C)CC)[C@@H](C)O)[C@@H](C)CC)[C@@H](C)O)[C@@H](C)O)C(C)C)[C@@H](C)CC` is reported as 64 µg/mL (Pseudomonas aeruginosa; ATCC 27853, CAMHB with 10% mouse serum; 150 mM NaCl).
With `Cc1ccc(NS(=O)(=O)c2c(C(=O)N3CCCCCC3)c(C)n(C)c2C)c(Cl)c1` the infection was 104% and 89.5% and 97.2% (Vaccinia virus; viral infection; HaCaT; 0.015 µM, 36 h; baseline: untreated).
`CC[C@H](C)[C@H](NC(=O)[C@H](CCCCN)NC(=O)[C@H](Cc1ccc(O)cc1)NC(=O)[C@H](CCC(N)=O)NC(=O)[C@H](Cc1c[nH]cn1)NC(=O)[C@@H](NC(=O)[C@H](Cc1ccccc1)NC(=O)[C@H](Cc1c[nH]cn1)NC(=O)[C@@H](NC(=O)[C@@H](NC(=O)CNC(=O)[C@H](CCCNC(=N)N)NC(=O)[C@H](Cc1c[nH]c2ccccc12)NC(=O)[C@H](CC(C)C)NC(=O)[C@H](CO)NC(=O)[C@H](CCC(=O)O)NC(=O)[C@H](CC(C)C)NC(=O)[C@H](CCC(=O)O)NC(=O)[C@H](CC(N)=O)NC(=O)[C@H](CC(C)C)NC(=O)[C@H](CC(=O)O)NC(=O)[C@H](CO)NC(=O)[C@H](CCC(=O)O)NC(=O)[C@@H](NC(=O)[C@H](CC(C)C)NC(=O)[C@H](CCC(N)=O)NC(=O)[C@H](CCC(=O)O)NC(=O)[C@H](CCC(=O)O)NC(=O)[C@H](CC(C)C)NC(=O)[C@@H]1CCCN1C(=O)[C@@H](N)Cc1ccccc1)[C@@H](C)O)[C@@H](C)O)[C@@H](C)O)C(C)C)C(=O)N[C@@H](CCSC)C(=O)N1CCC[C@H]1C(=O)N[C@@H](Cc1ccccc1)C(=O)N[C@@H](CCCNC(=N)N)C(=O)N[C@@H](CCCCN)C(=O)N[C@@H](CC(C)C)C(=O)N[C@H](C(=O)N[C@@H](Cc1ccccc1)C(=O)N[C@@H](CCCCN)C(=O)N[C@@H](CCCNC(=N)N)C(=O)N[C@@H](CCCNC(=N)N)C(=O)N[C@@H](CCCCN)C(=O)N[C@@H](CC(N)=O)C(N)=O)C(C)C` gave an MIC of greater than 50 µM (Mycolicibacterium smegmatis; ATP luminescence; ATCC 607; 48 h).
For `Cc1cc(/C=C/C#N)cc(C)c1-n1cnc2cnc(Nc3ccc(C#N)cc3)nc21`, the EC50 was 0.2 ± 0.1 nM (HIV-1; viral replication, single-round infection; RT mutant G190A).
With `Nc1ncnc2c1ncn2C1CCC(OC(C(=O)O)P(=O)(O)O)C1` (racemic) the fold resistance was 3 fold (HIV-1 reverse transcriptase K70E; enzyme activity, inhibitor; added: poly(rU)·oligo(dA), [3H]dATP; baseline: mutant over wild type).
`COCCn1ccn2cc(C(=O)NCc3ccc(F)cc3F)c(=O)c(O)c2c1=O` has an EC50 of 793 ± 27.1 nM (human immunodeficiency virus 1; single-round vector infection; integrase G140S/Q148H).
For `COc1ccc(-c2cnnn2-c2cc(OC)c(OC)c(OC)c2)cc1N`, the EC50 was 9.23 ± 0.87 nM (PC-3; cytotoxicity, nuclei counting; 24 h).
`COCCCCCCn1ccn2cc(C(=O)NCc3ccc(F)cc3F)c(=O)c(O)c2c1=O` has an EC50 of 6.3 ± 0.4 nM (human immunodeficiency virus 1; single-round vector infection; integrase S230N).
`Nc1ccn(C2CCC(OC(C(=O)O)P(=O)(O)O)C2)c(=O)n1` (racemic) gave a fold resistance of 5.2 fold (HIV-1 reverse transcriptase F61A; enzyme activity, inhibitor; added: poly(rI)·oligo(dC), [3H]dCTP; baseline: mutant over wild type).
`COCC(C)N1CCn2cc(C(=O)NCc3ccc(F)cc3F)c(=O)c(O)c2C1=O` (stereo not shown) gave an EC50 of 5 ± 0.9 nM (human immunodeficiency virus 1; single-round vector infection; integrase N155H).
`Cc1cc(/C=C/C#N)cc(C)c1Nc1nc(Nc2ccc(C#N)cc2)ncc1N` gave an EC50 of 1.1 ± 0.3 nM (HIV-1; viral replication, single-round infection; RT mutant K103N/P225H).

Repeated from above:
`COCCCCCCn1ccn2cc(C(=O)NCc3ccc(F)cc3F)c(=O)c(O)c2c1=O` has an EC50 of 6.3 ± 0.4 nM (human immunodeficiency virus 1; single-round vector infection; integrase S230N).
